Measured values collected from several papers.
A part holds a random share of what one study measured.

Set 1
Target: Interferon regulatory factor 5, full length, phosphomimetic (IRF5, Homo sapiens, UniProt Q13568-2, residues 1-514, K96S/S451D/S453D/S456D/S462D)
Method: protein-binding microarray
Molecule type: double-stranded DNA, one strand shown
Medium: in vitro
Tested at: 250 nM
Notes: 60-bp whole probe
With: salmon DNA 0.4 mg/ml
Baseline: random background probes
Reading: higher = stronger binding
Shared flanks, not repeated: GCCTAGCAC … GTCTTGATTCGCTTGACGCTGCTG
For `TCAGGTTTCACTTTCCAACTGTGCTAG`, the log fluorescence was 5.74 z-score.
With `TTAGGTTTCGTTTTCGGTTAGTGCTAG` the log fluorescence was 10.8 z-score.
The log fluorescence of `TTAGGTCTCGGTTCCGGTTAGTGCTAG` is reported as 1.51 z-score.
For `CACTAGTTTCTTTTCTTTTCGTGCTAG`, the log fluorescence was 2.83 z-score.
With `GACGATTTCGCGTATCGAGACGTGCTA` the log fluorescence was 1.26 z-score.
For `GACGAACTGAGTCTCGAAACGTGCTAG`, the log fluorescence was 0.396 z-score.
With `TCAATTCTCTGTTTATGACTGTGCTAG` the log fluorescence was 1.02 z-score.
`GACGGTTTCGCTTTCGGGACGTGCTAG` gave a log fluorescence of 9.07 z-score.
`GACGGACAGCTACTGCTGACGTGCTAG` gave a log fluorescence of -0.6 z-score.
For `TTTGAACTGAGACTGGATTAGTGCTAG`, the log fluorescence was -0.027 z-score.
For `TCACTTCACCTCTCTGTCACTGTGCTA`, the log fluorescence was 0.622 z-score.
For `TTAGATTTCAGTATAGATTAGTGCTAG`, the log fluorescence was 2.36 z-score.
For `TTAGGACTGGGGTTTAGGTTAGTGCTA`, the log fluorescence was -0.173 z-score.
`TTAGCTCTCGGTCTCGGTTAGTGCTAG` has a log fluorescence of 1.22 z-score.
For `GACGGTTTCGTACTGCTGACGTGCTAG`, the log fluorescence was 3.08 z-score.
`GACGAACTGAGTCTCGACACGTGCTAG` has a log fluorescence of 0.0274 z-score.
`TTAGGATTCCTTCTCCTTTAGTGCTAG` gave a log fluorescence of 0.164 z-score.
`TTAGGTTTCGACTATCGCTTAGTGCTA` gave a log fluorescence of 8.25 z-score.
The log fluorescence of `CATTTTCTCTGTTCTAGAAGGTGCTAG` is reported as 1.77 z-score.

Set 2
Target: Ras GTPase-activating protein-binding protein 1, RRM domain (G3BP1, Homo sapiens, UniProt Q13283)
Chain of UniProt Q13283 (whole entry, looked up): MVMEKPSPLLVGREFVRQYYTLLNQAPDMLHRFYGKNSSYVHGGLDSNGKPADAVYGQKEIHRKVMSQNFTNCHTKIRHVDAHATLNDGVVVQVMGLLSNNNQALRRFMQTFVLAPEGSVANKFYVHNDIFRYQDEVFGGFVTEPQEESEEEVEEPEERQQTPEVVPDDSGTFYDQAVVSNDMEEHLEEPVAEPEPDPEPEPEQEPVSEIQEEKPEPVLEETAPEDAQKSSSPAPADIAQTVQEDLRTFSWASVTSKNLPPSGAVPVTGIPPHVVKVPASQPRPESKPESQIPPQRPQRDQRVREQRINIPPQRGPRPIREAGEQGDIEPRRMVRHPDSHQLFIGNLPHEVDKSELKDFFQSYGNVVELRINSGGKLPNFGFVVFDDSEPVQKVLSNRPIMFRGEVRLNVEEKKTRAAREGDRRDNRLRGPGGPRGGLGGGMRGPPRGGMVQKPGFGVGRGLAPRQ
Method: RNA Bind-n-Seq
Molecule type: RNA
Medium: in vitro
Tested at: 1 µM
Notes: whole 134-nt RNA, ends assumed
With: 150 mM KCl
Baseline: input library
Reading: higher = stronger binding
For `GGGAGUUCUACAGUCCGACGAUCUGAGAAACUUGCUCAAAUAUUGGCAGCUAGACAGUUAGAAAUUAAACAGAUUCCAUCUGAUGGCCACUGUAUGUAUAAAGCCAUUGAAGAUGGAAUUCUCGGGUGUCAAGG`, the log2 enrichment was -0.143.
The log2 enrichment of `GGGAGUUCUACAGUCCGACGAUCCAAGUCCUGUGCUACACAUCGUAUGUACCGAAUCGGGUGGGAAAGGGUUUUUGGGAAAGUAUUAUGUUACGCCGUUCGGAUCUGCACUUCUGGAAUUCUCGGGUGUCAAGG` is reported as 0.692.
`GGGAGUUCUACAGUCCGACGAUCUGCUUGUUCUGGAGUGAUCUUCUGACUGGAAAAGAACUAUGUCAUGGAUCAAGGAAGGAGAGCUGUCACUUUGGGAGCGGUUCUGUGCCAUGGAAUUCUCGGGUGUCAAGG` has a log2 enrichment of 0.26.
`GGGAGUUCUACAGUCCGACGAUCUGUGCUACACAUCGUAUGUACCGAAUCGGGGCCCCCCCGGCCCCCCCGGGGCCCCCCCGGGGAAAGUAUUAUGUUACGCCGUUCGGAUCUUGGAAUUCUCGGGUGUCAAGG` has a log2 enrichment of -0.586.
For `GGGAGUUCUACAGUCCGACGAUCUAGAUAUCCAUAGAAAAGAGAACUCUGGAGCUGCAGAGAAGCCUGUCACCAUCCAUGCCACCCCAGAGGGGACUUCUGAAGCAUGCCGCAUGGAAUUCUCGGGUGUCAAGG`, the log2 enrichment was 0.0439.
For `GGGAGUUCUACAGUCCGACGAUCCUCAAGUCCUGUGCUACACAUCGUAUGUACCGAAUCGGCCGGGGCCGGCCGGGAAAGUAUUAUGUUACGCCGUUCGGAUCUGCACUUCCAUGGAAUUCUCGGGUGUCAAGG`, the log2 enrichment was -0.395.
The log2 enrichment of `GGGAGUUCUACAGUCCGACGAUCAGUCCUGUGCUACACAUCGUAUGUACCGAAUCAAAUUUUUUUAAAUUUAAACCCAAAAAAGUAUUAUGUUACGCCGUUCGGAUCUGCACUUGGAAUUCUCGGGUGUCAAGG` is reported as -1.54.
`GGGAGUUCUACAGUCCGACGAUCAAUAACUGACGCUGCAUUUAAUUUUUUUGCCAGUUUAAAAUGUUUGUGUGUUUUUAUAGAUGAUUUUAACUGGUACAUAUUUUGAGUUAAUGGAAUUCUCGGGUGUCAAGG` has a log2 enrichment of -0.43.
With `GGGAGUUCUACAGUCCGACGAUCGCAGGAAGUAAAAACAAAUGGAAAUGCUUCGGAUAGUGGCAGGGGUGGGGGUUGCUAAGGAAAGGGUGGGAUGGGAGUGGGUAAAGAGUCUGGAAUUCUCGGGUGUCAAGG` the log2 enrichment was 1.25.

Set 3
Target: RNA binding protein fox-1 homolog 2, RRM domain, GST-SBP tag (RBFOX2, Homo sapiens, UniProt O43251-10, residues 100-194)
Method: RNA Bind-n-Seq
Molecule type: RNA
Medium: in vitro
Tested at: 365 nM
Notes: natural RNA segment, single round, ends assumed
Baseline: no-protein control
Reading: higher = stronger binding
Residues (chain): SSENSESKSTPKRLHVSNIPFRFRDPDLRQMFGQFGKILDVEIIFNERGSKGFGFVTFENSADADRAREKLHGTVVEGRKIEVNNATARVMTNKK
`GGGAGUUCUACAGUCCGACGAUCUGUUGAUGCAUGGGCCUCAGUCACAGAGGAGCUGGGUGCCCAGUACCCUUGGGUGCAGGUCUUUGAAAACAAAGGUGCCAUGAUGGGCUGUUCUAACCCCCACCCCCACUUGGAAUUCUCGGGUGCCAA`: “RBNS enrichment (R)” 0.318.
`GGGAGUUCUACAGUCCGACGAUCAGUGGUAUGGCUGAACCCAUCGGAUAUUGUUAGCAAAGGAUGCAAAAACAUUAUUGGCAUCUGGAGAUUAUUGCAACGUUCUCCUAACCUGUCACAGAAAGCAGUUGCUUUGGAAUUCUCGGGUGCCAA`: “RBNS enrichment (R)” 0.762.
`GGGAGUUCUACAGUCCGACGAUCGCACCUCUGCCUGCGCUCGCACCUUCCUCCUCCUGAAACCAAGCUUUGAUUUAGAUUGAGUAAGAUUUACCCAGAAUGUCAGAUUCCUUUCCCUUUAGCACGUUUAAAGUUGGAAUUCUCGGGUGCCAA` — result for “RBNS enrichment (R)”: 31.6.
`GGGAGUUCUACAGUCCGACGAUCCUGCCUUUUGGGUCAGUAUAGGAUGCAUAAGUGGUAGAAUCUUCACACUUCCCACUGCCAAGAUUUUGUAUUGCCAUCAGGUGCCAAAUAAAUGUUGAUACUUAUUACUGUGGAAUUCUCGGGUGCCAA`: “RBNS enrichment (R)” 0.495.
For `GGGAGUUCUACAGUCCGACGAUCAUUCCUUGAGUCAUAGGUAUUAAUAAUAAAAGCCUCAAUGCAGCUUCUCCAUGUAGUUCCUCUCCUACAAGCCAGGUGGAUUCUGGUCCUAACUAAAGAGAUGGGAGUUCUGGAAUUCUCGGGUGCCAA`, “RBNS enrichment (R)” read 0.258.
`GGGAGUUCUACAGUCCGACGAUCCAUUUAUACAAGGGCUUGUGUGCCAAUGUUCCUACCAUACCAGCAACUCUUUCUAUCCCGUGAAUAAAAGCAUCCCUUGGCUGGGAUAUAGGGCCACAUCAACCUGAGUUUGGAAUUCUCGGGUGCCAA`: “RBNS enrichment (R)” 1.07.
`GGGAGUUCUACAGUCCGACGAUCCUUCUCAAUUUCUCAUAGAUUUUACCUUAAACUAAUUAAGGCCAUUCUCUUGAUAAAUUUGUACAUCAGACCGGGUCACCAGCUAUGAUGCAGAACGCCAGAUUUUUGAAUGGAAUUCUCGGGUGCCAA` — result for “RBNS enrichment (R)”: 0.327.
`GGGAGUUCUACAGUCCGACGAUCUAUAGUCAUGGGUUCUGCCUCUGUGCCCUUGCUGGCCGCUUCUCCUCUGCCUUCUUUCCUGGAACUCAGGGUGUGGGGACUGAGCCUGUAGGGGACAGCAUGCCGUCUUGUGGAAUUCUCGGGUGCCAA` — result for “RBNS enrichment (R)”: 0.593.

Set 4
Target: Sal-like protein 4, full length isoform B (SALL4, Homo sapiens, UniProt Q9UJQ4-2, residues 1-616)
Method: universal PBM
Molecule type: double-stranded DNA, one strand shown
Medium: in vitro
Tested at: not given
Notes: 8-mer, flanks averaged, mean of replicates
Reading: higher = stronger binding
Residues (chain): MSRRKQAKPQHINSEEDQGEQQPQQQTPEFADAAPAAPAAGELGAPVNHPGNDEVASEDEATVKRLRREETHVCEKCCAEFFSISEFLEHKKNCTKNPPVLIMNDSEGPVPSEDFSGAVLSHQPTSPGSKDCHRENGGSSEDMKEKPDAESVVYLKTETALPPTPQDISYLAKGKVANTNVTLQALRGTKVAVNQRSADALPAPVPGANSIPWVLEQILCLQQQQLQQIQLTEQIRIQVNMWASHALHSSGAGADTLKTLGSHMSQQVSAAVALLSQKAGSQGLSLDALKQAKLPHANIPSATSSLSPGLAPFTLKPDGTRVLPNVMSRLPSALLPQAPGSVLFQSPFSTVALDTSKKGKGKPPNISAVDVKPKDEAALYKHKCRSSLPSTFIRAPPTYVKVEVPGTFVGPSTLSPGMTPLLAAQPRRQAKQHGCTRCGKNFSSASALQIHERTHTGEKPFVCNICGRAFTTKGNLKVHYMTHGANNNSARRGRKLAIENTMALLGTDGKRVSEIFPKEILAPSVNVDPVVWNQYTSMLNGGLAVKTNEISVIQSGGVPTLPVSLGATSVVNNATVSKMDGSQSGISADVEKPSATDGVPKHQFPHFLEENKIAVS
`GCGGCAGC` gave an E-score of -0.358.
`CCACGATA` gave an E-score of 0.0462.
The E-score of `CCTAGGCG` is reported as -0.251.
For `ACCTTTGA`, the E-score was -0.0383.
The E-score of `AAAGGCAT` is reported as 0.147.
With `CTGGTCAA` the E-score was -0.15.
With `CCTCCCCA` the E-score was -0.254.
For `ATATCACC`, the E-score was 0.316.
The E-score of `ACGATTAG` is reported as 0.125.
`CTAAGAGC` has an E-score of -0.352.
With `AGTCCAAT` the E-score was 0.0829.
`GAAAGCAA` has an E-score of 0.081.
The E-score of `CATAAGCC` is reported as 0.171.
`ATTTCCCG` has an E-score of 0.0127.
`AAACGTCG` gave an E-score of 0.00376.
The E-score of `GATTACAC` is reported as 0.123.
With `TGCTCCAA` the E-score was -0.0262.
For `CCTGATAA`, the E-score was 0.075.
For `GATAAATC`, the E-score was 0.12.
With `CTCGAATA` the E-score was 0.0142.
The E-score of `CTACGCCC` is reported as -0.258.
With `CAATCACG` the E-score was 0.136.
`AGTGAGCC` gave an E-score of -0.157.
With `AGTTCGCG` the E-score was -0.191.
With `ACTGAATA` the E-score was 0.261.

Some of these lines once more (set 1):
`TTAGGTTTCGACTATCGCTTAGTGCTA` gave a log fluorescence of 8.25 z-score.
The log fluorescence of `CATTTTCTCTGTTCTAGAAGGTGCTAG` is reported as 1.77 z-score.
For `GACGGTTTCGTACTGCTGACGTGCTAG`, the log fluorescence was 3.08 z-score.
For `TTTGAACTGAGACTGGATTAGTGCTAG`, the log fluorescence was -0.027 z-score.
For `TCAGGTTTCACTTTCCAACTGTGCTAG`, the log fluorescence was 5.74 z-score.
For `GACGAACTGAGTCTCGAAACGTGCTAG`, the log fluorescence was 0.396 z-score.
